Results pooled from the literature.
Parts stem from different laboratories: compare values within a part only.

Sample 1 — technique: universal PBM; molecule type: double-stranded DNA, one strand shown; medium: in vitro; tested at: not given; direction: higher = stronger binding
Target: Sal-like protein 4, full length isoform B (SALL4, Homo sapiens, UniProt Q9UJQ4-2, residues 1-616)
Setting: 8-mer, flanks averaged, mean of replicates
`AAATCTGG` gave an E-score of 0.0345.
`GACGGTAA` has an E-score of -0.00323.
With `AATTCGGA` the E-score was 0.0386.
With `AGCGCGAG` the E-score was -0.226.
`ATAGACCC` gave an E-score of 0.105.
`CAAGAGTC` gave an E-score of 0.0623.

Sample 2 — technique: RNA Bind-n-Seq; molecule type: RNA; medium: in vitro; tested at: 1 µM; setting: whole 134-nt RNA, ends assumed; with: 150 mM KCl; baseline: input library; direction: higher = stronger binding
Target: Ras GTPase-activating protein-binding protein 1, C-terminal RGG region (G3BP1, Homo sapiens, UniProt Q13283)
UniProt Q13283, sequence (whole entry, looked up): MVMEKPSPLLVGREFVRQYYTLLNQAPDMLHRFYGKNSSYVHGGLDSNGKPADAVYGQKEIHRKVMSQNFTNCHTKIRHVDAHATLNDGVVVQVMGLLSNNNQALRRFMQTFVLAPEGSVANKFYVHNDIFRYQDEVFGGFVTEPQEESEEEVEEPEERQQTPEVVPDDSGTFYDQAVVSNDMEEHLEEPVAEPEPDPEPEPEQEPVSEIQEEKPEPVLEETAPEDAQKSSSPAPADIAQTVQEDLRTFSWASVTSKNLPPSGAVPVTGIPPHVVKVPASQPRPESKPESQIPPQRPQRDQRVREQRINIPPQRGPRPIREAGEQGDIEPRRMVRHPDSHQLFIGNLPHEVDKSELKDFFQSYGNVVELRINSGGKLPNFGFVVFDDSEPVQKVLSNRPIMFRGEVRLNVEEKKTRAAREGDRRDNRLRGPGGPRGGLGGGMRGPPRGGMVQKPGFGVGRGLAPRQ
All sequences stand within: GGGAGUUCUACAGUCCGACGAUC … UGGAAUUCUCGGGUGUCAAGG
`UGGCCCUGGUGGCAAGCGGGGAGGAAGAGGUGGCCUCAUGGAUCGUGGUGGUCCCGGUGGAAUGUUCAGAGGUGGCCGUGGUGGAGACAG` has a log2 enrichment of 1.94.
`AUGCACUUGACAUAGUAGCAAAUUGGUUCUGAAUUAUGCAACUGUUUGCUAUUUAGUAAACUAGCAAAUGAUGCAUGUAUUUUGUUUUUC` has a log2 enrichment of -2.03.
`UCAAGUCCUGUGCUACACAUCGUAUGUACCGAAUCGGUUUUUGGAGGAAAAAGGAAAGUAUUAUGUUACGCCGUUCGGAUCUGCACUUCC` gave a log2 enrichment of -1.29.
`AGUCCUGUGCUACACAUCGUAUGUACCGAAUCGGGUUUUUGGGUUUGGGUUUUUGGGAAAGUAUUAUGUUACGCCGUUCGGAUCUGCACU` has a log2 enrichment of 0.912.
`ACCAUGCAGGUGGGCAUAUUUGGGAAGUGGGGCAAGGGGGGGAUAGGGAGGGGGGUAACACUUUGGGAACAGGUGGUCCCAGGUCGUUUC` has a log2 enrichment of -0.879.
The log2 enrichment of `AGUCCUGUGCUACACAUCGUAUGUACCGAAUCGGGAAAAAAAGGGUUUGGGUUUGGGAAAGUAUUAUGUUACGCCGUUCGGAUCUGCACU` is reported as 0.83.

Sample 3 — technique: competition protein-binding microarray; molecule type: double-stranded DNA, one strand shown; medium: in vitro; tested at: 2 µM; with: Pho4 competitor, 0.05 µM; direction: higher = stronger binding
Target: Centromere-binding protein 1, full length, His-tagged (CBF1, Saccharomyces cerevisiae, UniProt P17106, residues 1-351)
UniProt P17106, sequence (whole entry, looked up): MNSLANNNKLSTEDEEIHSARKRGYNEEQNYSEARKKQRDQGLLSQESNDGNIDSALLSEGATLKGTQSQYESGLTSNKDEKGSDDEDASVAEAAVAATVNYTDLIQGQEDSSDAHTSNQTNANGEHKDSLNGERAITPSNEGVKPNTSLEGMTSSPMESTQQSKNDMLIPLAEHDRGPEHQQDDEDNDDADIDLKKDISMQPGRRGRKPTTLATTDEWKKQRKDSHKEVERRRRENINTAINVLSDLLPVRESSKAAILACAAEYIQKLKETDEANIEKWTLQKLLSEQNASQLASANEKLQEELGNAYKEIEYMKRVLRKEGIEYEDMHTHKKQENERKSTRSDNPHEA
Setting: whole 60-bp probe, lowest competitor level
The fluorescence intensity of `AAATTACTAAGTTGGGGGGTGGGTGACGCCGTATGAGTCTTGATTCGCTTGACGCTGCTG` is reported as 172 a.u.
With `CGCTTGACGAACCATCACGTTTGTCAATAACACTTCGTCTTGATTCGCTTGACGCTGCTG` the fluorescence intensity was 248 a.u.
The fluorescence intensity of `CTCGAGGATTGCCTACGCGTGGGACTGATCCACCAAGTCTTGATTCGCTTGACGCTGCTG` is reported as 57.8 a.u.
`AAAGCGGTAATTTGTCACGGCACTTCACATATCTATGTCTTGATTCGCTTGACGCTGCTG` gave a fluorescence intensity of 124 a.u.

Mixed results
For `PhoQ, residues 284 288 289 292 302 303 AMDMFI`, the fold induction was 0.415 (PhoP, residues 12 14 15 18 19 LHHVQ (Escherichia coli, UniProt P23836); Sort-seq, item: YFP reporter; E. coli; PhoQ-PhoP variant library, with: 10 µM Mg2+; baseline: high Mg2+ state, higher = stronger signaling).
